Published values of several laboratories.
Lines come from different studies, so protocols differ. Numbers after ± are the reported error.
Target: Acetylcholinesterase (ache, Electrophorus electricus, UniProt O42275)
UniProt O42275, sequence (whole entry, looked up): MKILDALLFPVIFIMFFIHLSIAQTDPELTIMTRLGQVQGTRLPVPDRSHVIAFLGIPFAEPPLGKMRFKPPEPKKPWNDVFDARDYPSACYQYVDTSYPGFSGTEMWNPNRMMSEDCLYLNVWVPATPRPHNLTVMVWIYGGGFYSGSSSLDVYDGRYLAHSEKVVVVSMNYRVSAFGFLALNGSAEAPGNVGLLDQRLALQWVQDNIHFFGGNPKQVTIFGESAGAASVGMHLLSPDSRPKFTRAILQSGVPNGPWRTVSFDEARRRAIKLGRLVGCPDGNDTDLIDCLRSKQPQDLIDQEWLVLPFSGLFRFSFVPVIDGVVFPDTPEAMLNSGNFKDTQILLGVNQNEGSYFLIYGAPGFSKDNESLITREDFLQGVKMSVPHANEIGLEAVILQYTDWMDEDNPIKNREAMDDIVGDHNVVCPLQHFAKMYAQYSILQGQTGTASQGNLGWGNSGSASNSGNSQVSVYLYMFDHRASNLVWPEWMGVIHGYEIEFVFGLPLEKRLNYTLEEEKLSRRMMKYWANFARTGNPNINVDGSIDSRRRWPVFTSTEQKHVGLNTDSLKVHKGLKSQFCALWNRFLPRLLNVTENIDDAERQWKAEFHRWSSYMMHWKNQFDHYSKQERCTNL
Observed: enzyme activity
Action: inhibitor

SMILES | test | conditions | IC50 [nM]
O=S(=O)(N/N=C/c1ccc(OS(=O)(=O)c2ccc(Br)cc2)cc1)c1cc(Cl)ccc1Cl | Ellman |  | 42.6
COc1ccc(-c2csc(NN=C(C=Cc3ccc(Cl)cc3)C(=O)O)n2)cc1 | Ellman |  | 687
CNC(=O)c1cccc(-c2ccc3ncc(-c4cccc(C(=O)NCCN(C)C)c4)n3n2)c1 | Ellman |  | 15400
O=S(=O)(N/N=C/c1ccc(OS(=O)(=O)c2ccccc2)cc1)c1ccc(Cl)cc1 | Ellman |  | 35.2
CCCCc1nc2ccc(/N=N/c3ccc(Br)cc3)cc2c(-c2ccccc2)c1I | Ellman | pH 7.4 | 6950
COc1ccc2[nH]cc(CCNS(=O)(=O)CCc3cn(-c4cc(C)cc(C)c4)nn3)c2c1 | Ellman |  | 26
CCc1nc2ccc(C(=O)NCCCN(C)C)cn2c1N(C)Cc1cccs1 |  |  | 3710 ± 14000
COc1cc2c(cc1OC)CN(S(=O)(=O)CCc1cn(-c3cc(C)cc(C)c3)nn1)CC2 | Ellman |  | 42
CCN(CC)CCNC(=O)c1ccc(Nc2nccc3[nH]c(-c4cccc(OC)c4F)nc23)cc1 | Ellman |  | 2780
O=C(O)C(/C=C/c1c(Cl)cccc1Cl)=N\Nc1nc(-c2ccc([N+](=O)[O-])cc2)cs1 | Ellman |  | 865
O=S(=O)(N/N=C/c1ccc(OS(=O)(=O)c2ccccc2)cc1)c1cc(Cl)ccc1Cl | Ellman |  | 5.33
Cc1ccc(-c2csc(NN=C(C=Cc3ccc(Cl)cc3)C(=O)O)n2)cc1 | Ellman |  | 875
O=S(=O)(N/N=C/c1ccc(OS(=O)(=O)c2cc(Cl)ccc2Cl)cc1)c1cc(Cl)ccc1Cl | Ellman |  | 10.7
O=C(Nc1cccnc1)c1cccc(C2(CNCc3ccc(F)c(F)c3)CC2)c1 | Ellman |  | 5860
O=C(O)C(/C=C/c1c(Cl)cccc1Cl)=N\Nc1nc(-c2ccccc2)cs1 | Ellman |  | 944
COc1ccc(S(=O)(=O)Oc2ccc(/C=N/NS(=O)(=O)c3ccc(Cl)cc3)cc2)cc1 | Ellman |  | 24.7
O=C(O)C(/C=C/c1ccc(Cl)cc1)=N\Nc1nc(-c2ccc([N+](=O)[O-])cc2)cs1 | Ellman |  | 1150
O=S(=O)(N/N=C/c1ccc(OS(=O)(=O)c2ccc(Br)cc2)cc1)c1ccc(Cl)cc1 | Ellman |  | 12.6
CN1CCN(c2ccc(Nc3cc4[nH]c(-c5cccc(F)c5)cc4cn3)cc2)CC1 | Ellman |  | 16700
Ic1ccccc1/N=N/c1ccc2nc(-c3ccccc3)cc(-c3ccccc3)c2c1 | Ellman | pH 7.4 | 13100
O=S(=O)(CCc1cn(-c2cnc3ccccc3c2)nn1)NCCc1c[nH]c2ccc(Cl)cc12 | Ellman |  | 104
CCc1nc2ccc(C(=O)NCCOc3ccc(OC)cc3)cn2c1N(C)Cc1ccc(OC)cc1 | Ellman |  | 3370

Excerpt of the above:
SMILES | test | conditions | IC50 [nM]
COc1cc2c(cc1OC)CN(S(=O)(=O)CCc1cn(-c3cc(C)cc(C)c3)nn1)CC2 | Ellman |  | 42
COc1ccc(S(=O)(=O)Oc2ccc(/C=N/NS(=O)(=O)c3ccc(Cl)cc3)cc2)cc1 | Ellman |  | 24.7
